Assay results pooled from the literature.
Protocols differ between the studies behind these lines. Several values in a cell are separate wells, animals, samples, runs or records. ± marks the error that the study gave. ≈ marks a conversion by molar mass, not a printed value.

Structure (SMILES) | organism | test | test system | setting | how to read | quantity | value
Nc1ncnc2c1ncn2[C@@H]1O[C@@H]2COP(=O)(O)O[C@H]3[C@@H](O)[C@H](n4cnc5c(=O)[nH]cnc54)O[C@@H]3COP(=O)(O)O[C@H]2[C@H]1O | West Nile virus | RNA sequencing, refers to: formation, elastic fibre, R-HSA-1566948 | HFF-1 cells | concentration not given, downregulated pathway | relative to: WNV-infected untreated cells | fold enrichment | 7.33
O=[N+]([O-])c1cc2cc3ccc4oc([N+](=O)[O-])cc4c3cc2o1 | Mycobacteroides abscessus | REMA | ATCC 19977 | – | – | MIC90 | 32 µg/mL (≈ 107 µM)
OC[C@H]1O[C@@H](n2ccc3c(SCc4ccc(Cl)cc4Cl)ncnc32)[C@H](O)[C@@H]1O | Toxoplasma gondii | [3H]uracil incorporation | human fibroblasts, RH wild type | 50 µM | – | survival | 3.5%
C/C=C(/C)C(=O)O[C@H]1C(C)=C2C([C@@H]1OC(=O)CCCCCCC)[C@@](C)(OC(C)=O)C[C@H](OC(=O)CCC)[C@@]1(O)[C@H]2OC(=O)[C@@]1(C)O (stereo partly drawn) | Mus musculus | gene silencing, high-content imaging | LDR reporter GFP cells | retest run 2 | – | maximal activity | 96%
CC[C@H]1OC(=O)[C@H](C)[C@@H](O[C@H]2C[C@@](C)(OC)[C@@H](O)[C@H](C)O2)[C@H](C)[C@@H](O[C@@H]2O[C@H](C)C[C@H](N(C)C)[C@H]2O)[C@](C)(O)C[C@@H](C)CN(C)[C@H](C)[C@@H](O)[C@]1(C)O | Staphylococcus, coagulase-negative | – | – | – | – | MIC90 | > 32 µg/mL
N#CC(C#N)=NNc1ccc(OC(F)(F)F)cc1 | human coronavirus OC43 | virus-induced cell killing | MRC-5 | screen | – | maximum inhibition | 7.65%
OC[C@H]1O[C@@H](n2ccc3c(O)ncnc32)[C@H](O)[C@@H]1O | Toxoplasma gondii | [3H]uracil incorporation | human fibroblasts, adenosine kinase-deficient | 10 µM | – | parasite survival | 100%
c1ccc2c(c1)[I+]c1ccccc1-2 | Toxoplasma gondii | – | – | alkaline-induced bradyzoites | – | EC90 | 460 nM
C/C=C(/C)C(=O)O[C@H]1C(C)=C2[C@H]([C@@H]1OC(=O)CCCCCCC)[C@@](C)(OC(C)=O)C[C@H](OC(=O)CCC)[C@@]1(O)[C@H]2OC(=O)[C@@]1(C)O | human coronavirus OC43 | virus-induced cell killing | MRC-5 | screen | – | maximum inhibition | 13.6%
OC[C@H]1O[C@@H](n2ccc3c(SCc4ccc(F)cc4F)ncnc32)[C@H](O)[C@@H]1O | Toxoplasma gondii | [3H]uracil incorporation | human fibroblasts, RH wild type | 5 µM | – | survival | 76.1%
CC[C@H](C)[C@H](NC(=O)[C@H](C)NC(=O)[C@H](CCCCN)NC(=O)[C@H](CC(C)C)NC(=O)[C@H](C)NC(=O)[C@@H](NC(=O)[C@H](Cc1c[nH]cn1)NC(=O)[C@H](CC(C)C)NC(=O)[C@@H](NC(=O)[C@@H](NC(=O)[C@H](CCCCN)NC(=O)[C@H](C)NC(=O)[C@H](C)NC(=O)[C@H](CO)NC(=O)[C@H](CCCCN)NC(=O)[C@H](Cc1ccccc1)NC(=O)[C@@H](NC(=O)[C@H](CCCCN)NC(=O)[C@H](CC(C)C)NC(=O)[C@H](Cc1ccccc1)NC(=O)[C@H](CO)NC(=O)[C@H](CCCCN)NC(=O)[C@H](Cc1c[nH]c2ccccc12)NC(=O)[C@H](CCCCN)NC(C)=O)[C@@H](C)O)[C@@H](C)O)C(C)C)[C@@H](C)O)C(=O)N[C@@H](CO)C(=O)N[C@@H](CO)C(N)=O | Streptococcus pyogenes | – | ATCC 19615 | – | – | MIC range | 8 µg/mL (≈ 2.73 µM)
COC(=O)N[C@H](C(=O)N1CCC[C@H]1c1ncc(-c2ccc(-c3ccc(-c4cnc([C@@H]5CCCN5C(=O)[C@@H](NC(=O)OC)C(C)C)[nH]4)cc3)cc2)[nH]1)C(C)C | hepatitis C virus | HCV replicon | – | 75% effect level, with: IFN-α, ratio 1:2.5 | – | combination index | 0.66 and 1.06 and 0.88
COc1cc2ccc3oc([N+](=O)[O-])cc3c2cc1OC | Mycobacteroides abscessus | REMA | ATCC 19977 | – | – | MIC90 | > 32 µg/mL
CC(=O)NCC(=O)N1[C@@H]2CC[C@H]1c1ccc(Nc3ncc(C(F)(F)F)c(NC4CCC4)n3)cc12 | mouse hepatitis virus | viral replication | nanoluciferase reporter | 1 µM | – | inhibition | 58%
C[C@@H]1C[C@@H]([C@H](O)CC2CC(=O)NC(=O)C2)C(=O)[C@@H](C)C1 | Mus musculus | gene silencing, high-content imaging | LDR reporter GFP cells | 30 h, confirmation, mean of two runs | – | Emax | 36%
CS(=O)(=O)CCCn1c(Cn2c(=O)n(CC(F)(F)F)c3ccncc32)cc2cc(Cl)ccc21 | respiratory syncytial virus | RT-qPCR | hospitalized infants 1-24 months, nasal swab | oral, 6, 4.5 or 3 mg/kg daily, day 6, mid dose by age cohort | relative to: baseline | LS mean viral load change | -5.8 log10 copies/mL
Nc1c([N+](=O)[O-])oc2ccc3ccccc3c12 | Mycobacteroides abscessus | REMA | ATCC 19977 | – | – | MIC90 | > 32 µg/mL
C[N+](C)(C)CCO.C[N+](C)(C)CCO.[SH-].[SH-].[S]=[Mo]=[S] | human coronavirus OC43 | virus-induced cell killing | MRC-5 | screen | – | maximum inhibition | 16.4%
CN1CC[C@@]2(C)c3cc(OC(=O)Nc4ccccc4)ccc3N(C)[C@@H]12 | Toxoplasma gondii | parasite growth, luciferase reporter | HFF, tachyzoite | 72 h | – | EC90 | 30000 nM
Cc1ccc(CSc2ncnc3c2ccn3[C@@H]2O[C@H](CO)[C@@H](O)[C@H]2O)cc1 | Toxoplasma gondii | intracellular parasite growth, [3H]uracil incorporation | human foreskin fibroblasts, RH wild type | – | – | IC50 | 8800 ± 700 nM
C=CC[C@@H]1c2ccc(OC)c(OC)c2CN2CCc3cc4c(cc3[C@H]12)OCO4 | Staphylococcus aureus | – | P2rx7 A312V/A312V mice, skin wound infection | dose not given, day 5 | relative to: day 0 | relative wound size | 0.98 and 0.89 and 0.66 and 0.82 and 0.86
O=C(Nc1ccccc1-c1cn2c(CN3CCNCC3)csc2n1)c1cnc2ccccc2n1 | human coronavirus OC43 | virus-induced cell killing | MRC-5 | maximum over 10 doses | – | maximum inhibition | 0%
C[C@@H]1C[C@@H]([C@H](O)CC2CC(=O)NC(=O)C2)C(=O)[C@@H](C)C1 | Fusarium solani | – | – | concentration not given | – | inhibition zone diameter | 12 ± 0.54 mm
C[C@H]1COC2(CCN(c3nc(=O)c4cc(C(F)(F)F)cc([N+](=O)[O-])c4s3)CC2)O1 (racemic) | human coronavirus OC43 | virus-induced cell killing | MRC-5 | maximum over 10 doses | – | maximum inhibition | 0%

Structure (SMILES) | organism | test | test system | setting | how to read | quantity | value
Cc1c2c(nn1C)CSCc1cc(n(C)n1)CSc1cc(c3ccccc3c1)OCCCc1c(C(=O)O)n(C)c3c-2c(Cl)ccc13 | Staphylococcus aureus | label-free quantitative proteomics, refers to: SAOUHSC_01832 protein | SA113 | concentration not given | relative to: untreated control | log2 fold change | 7.09
CCOc1cc(N2CCC(O)CC2)ccc1Nc1ncc2c(n1)N(C)c1ccccc1C(=O)N2C | mouse hepatitis virus | viral replication | nanoluciferase reporter | 1 µM | – | inhibition | 9%
OC[C@H]1O[C@@H](n2ccc3c(SCc4ccc(Cl)c(Cl)c4)ncnc32)[C@H](O)[C@@H]1O | Toxoplasma gondii | [3H]uracil incorporation | human fibroblasts, RH wild type | 50 µM | – | survival | 3.3%
COC(=O)[C@@H]1[C@@H](c2ccccc2)[C@]2(c3ccc(OC)cc3)Oc3cc(OC)cc(OC)c3[C@@]23N=C(C)N[C@@]13O | Hepatitis E virus | viral replication | HepG2 HEV-3 replicon, genotype 3 | 48 h, racemate | – | EC50 | ~1.5 nM
CN1C(=O)[C@@H](N2CCc3cn(Cc4ccccc4)nc3C2=O)COc2ccccc21 | mouse hepatitis virus | viral replication | nanoluciferase reporter | 1 µM | – | inhibition | -1%
CCCCc1ccc(CNc2nc(N(C)C)nc(N(C)C)c2/N=N/c2ccc(Cl)cc2)cc1 | Ostrinia furnacalis | leaf dipping | – | 200 mg/L, 96 h | – | mortality | 93.3 ± 5.8%
C[C@@H]1CN(c2cc(-c3n[nH]c4ccc(OC5(C)CC5)cc34)ncn2)C[C@H](C)O1 | mouse hepatitis virus | viral replication | nanoluciferase reporter | 1 µM | – | inhibition | 37%
Cc1ccc2nc(NC(=O)CSc3nc4c(c(=O)n3-c3ccccc3)SCC4)sc2c1 | human coronavirus OC43 | virus-induced cell killing | MRC-5 | screen | – | maximum inhibition | 5.6%
Cn1c(=O)ccc2ccc(F)c(CCNC[C@H]3CN(c4cnc5c(n4)NC(=O)CO5)C(=O)O3)c21 | Fusobacterium spp. | – | – | – | – | MIC90 | < 0.015 µg/mL
CNC[C@H](O)[C@@H](O)[C@H](O)[C@H](O)CO.[O]=[Sb](=[O])[OH] | Leishmania major | – | BALB/c mouse | topical, dose not given, 21 days, unit not given | relative to: PBS | lesion size difference | 8.4
O=[N+]([O-])c1cc2c(ccc3c2ccc2cc([N+](=O)[O-])oc23)o1 | Salmonella enterica | REMA | – | – | – | MIC90 | < 0.25 µg/mL
CCCCCC[C@H]1C(=O)O[C@H](C)[C@H](NC(=O)c2cccc(NC=O)c2O)C(=O)O[C@@H](C)[C@@H]1OC(=O)CC(C)C | Equid alphaherpesvirus 1 | viral replication | RK-13 | – | – | IC50 | 37 nM
CN1CC(O)=C(C(=O)NC(C(=O)NC2C(=O)N3C2SC(C)(C)C3C(=O)O)c2ccccc2)C1=O (stereo not drawn) | Escherichia coli | – | ΔtolC JW5503-1 | 200 µM, with: 30 µg/mL 2,2'-bipyridyl | – | zone of inhibition | 15.3 mm
COc1ccc2c(ccc3oc([N+](=O)[O-])cc32)c1 | Mycobacteroides abscessus | REMA | ATCC 19977 | – | – | MIC90 | 0.5 µg/mL (≈ 2.06 µM)
CCCCCCCCCCCCCCCCCCO | hepatitis B virus | – | HepAD38 | 25 µM, 48 h | – | HBV DNA level | no effect
CCCCCCCCCCC[C@@H](C[C@@H]1OC(=O)[C@H]1CCCCCC)OC(=O)[C@H](CC(C)C)NC=O | human coronavirus OC43 | virus-induced cell killing | MRC-5 | screen | – | maximum inhibition | 51.4%
CCCCCCCCCCCc1c([N+](=O)[O-])oc2ccc3ccccc3c12 | Mycobacteroides abscessus | REMA | ATCC 19977 | – | – | MIC90 | > 32 µg/mL
N=C(N)NCCC[C@H](NC(=O)[C@H](Cc1c[nH]c2ccccc12)NC(=O)[C@H](CCCNC(=N)N)NC(=O)[C@H](Cc1c[nH]c2ccccc12)NC(=O)[C@H](Cc1c[nH]c2ccccc12)NC(=O)[C@H](Cc1c[nH]c2ccccc12)NC(=O)[C@H](CCCNC(=N)N)NC(=O)[C@H](Cc1c[nH]c2ccccc12)NC(=O)[C@@H](N)CCCNC(=N)N)C(=O)N[C@@H](Cc1c[nH]c2ccccc12)C(N)=O | Candida albicans | broth microdilution | CGMCC 2.209, RPMI 1640-MOPS | 48 h, 30 °C, with: NaCl 150 mM | – | MIC | 32 µM (≈ 56.3 µg/mL)
CN1CCN(C(=O)C(C)(C)c2ccc(C(=O)Nc3cn4cc(-c5ccncc5)ccc4n3)cc2)CC1 | mouse hepatitis virus | viral replication | nanoluciferase reporter | 1 µM | – | inhibition | -4%
O=[N+]([O-])c1cc2c(ccc3c4cc([N+](=O)[O-])oc4ccc23)o1 | Salmonella enterica | REMA | – | – | – | MIC90 | < 0.25 µg/mL
CCCCCCCCCC(=O)N[C@@H](Cc1c[nH]c2ccccc12)C(=O)N[C@H](CC(N)=O)C(=O)N[C@@H](CC(=O)O)C(=O)N[C@@H]1C(=O)NCC(=O)N[C@@H](CCCN)C(=O)N[C@@H](CC(=O)O)C(=O)N[C@H](C)C(=O)N[C@@H](CC(=O)O)C(=O)NCC(=O)N[C@H](CO)C(=O)N[C@@H]([C@H](C)CC(=O)O)C(=O)N[C@@H](CC(=O)c2ccccc2N)C(=O)O[C@@H]1C | Streptococcus pyogenes | – | – | – | – | MIC90 | 0.06 µg/mL (≈ 0.037 µM)
C[C@H]1CCC/C=C/[C@@H]2C[C@H](O)C[C@H]2[C@H](O)/C=C/C(=O)O1 | Toxoplasma gondii | parasite growth | HFF, bradyzoite, alkaline-induced | – | – | EC90 | 215 nM
NCCCC(N)(C(=O)O)C(F)F (racemic) | human coronavirus OC43 | virus-induced cell killing | MRC-5 | screen | – | maximum inhibition | 22.5%
CN(c1ncccc1CNc1nc(Nc2ccc3c(c2)CC(=O)N3)ncc1C(F)(F)F)S(C)(=O)=O | mouse hepatitis virus | viral replication | nanoluciferase reporter | 1 µM | – | inhibition | 34%
